Results of several laboratories.
Numbered parts are unrelated; each lists some results of a single study. Positions count from the first letter of the parent shown.

Set 1
Target: CCNA2, cyclin fold, Cln2 fusion (human)
Method: yeast growth competition, sequencing
Sample: yeast
Notes: strong parent motif
Baseline: not given
Direction: higher = stronger binding
Quantity: normalised enrichment score
Parent: viral docking peptide; TSVRRALFTGGSD; partner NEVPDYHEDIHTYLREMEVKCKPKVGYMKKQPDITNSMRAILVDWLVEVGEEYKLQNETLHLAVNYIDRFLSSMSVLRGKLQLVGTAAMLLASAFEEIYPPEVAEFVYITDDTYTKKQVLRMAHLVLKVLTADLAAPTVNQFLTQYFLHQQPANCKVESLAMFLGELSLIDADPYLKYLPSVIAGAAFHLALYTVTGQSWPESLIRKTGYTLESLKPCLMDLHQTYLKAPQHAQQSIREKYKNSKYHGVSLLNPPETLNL
S2L: 5.6
R4M: 1.49
R4E: 0.104
S2N: 6.35
R5W: 0.892
A6F: 1.55
G10I: 6.14
A6H: 2.73
R4T: 1.36
G10W: 5.75
F8A: 0.603
L7I: 1.76
T9N: 6.19
R5K: 5.95
A6Y: 0.931
L7M: 1.21
D13A: 6.15
F8I: 0.83
R4K: 5.12
G10V: 5.92
R4Y: 3.45
G11E: 6.04
S12V: 6.22
L7E: 0.0995
L7P: 0.0874

Set 2
Target: vanadate, free oxyanion
Method: microfluidic competitive inhibition
Sample: in vitro, cell-free expressed
Tested at: not given
Notes: derived from inhibition constants, unchanged parent 676 nM
Direction: lower = stronger binding
Quantity: oxyanion analog dissociation constant
Parent: PafA, mature enzyme, eGFP fusion (Elizabethkingia meningoseptica, UniProt Q9KJX5); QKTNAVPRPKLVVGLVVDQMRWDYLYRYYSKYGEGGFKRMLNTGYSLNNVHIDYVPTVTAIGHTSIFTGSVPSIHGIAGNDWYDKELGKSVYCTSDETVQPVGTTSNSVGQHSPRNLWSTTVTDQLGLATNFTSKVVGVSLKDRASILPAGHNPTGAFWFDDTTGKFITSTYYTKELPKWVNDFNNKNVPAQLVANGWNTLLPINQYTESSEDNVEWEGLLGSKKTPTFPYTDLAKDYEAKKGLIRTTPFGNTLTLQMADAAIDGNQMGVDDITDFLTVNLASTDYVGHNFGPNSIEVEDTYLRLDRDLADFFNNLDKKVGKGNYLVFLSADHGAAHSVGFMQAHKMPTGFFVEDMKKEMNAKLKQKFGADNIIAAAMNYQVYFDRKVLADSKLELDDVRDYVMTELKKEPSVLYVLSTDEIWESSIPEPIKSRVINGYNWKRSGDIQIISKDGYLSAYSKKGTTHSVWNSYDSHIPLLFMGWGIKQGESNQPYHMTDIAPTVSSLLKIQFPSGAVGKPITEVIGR
K135V: 816 nM
S30V: 546 nM
K89G: 813 nM
P9V: 771 nM
Q343G: 739 nM
G156V: 560 nM
I520G: 1.77 µM
G454V: 679 nM

Set 3
Target: Prothrombin, mature alpha-thrombin (F2, Homo sapiens, UniProt P00734)
Method: aptamer microarray, sandwich
Molecule type: DNA with 2'F-ANA
Sample: in vitro
Tested at: 200 nM
Notes: whole 15-mer aptamer, many near background
With: Cy3 exosite-II aptamer, 400 nM
Direction: higher = stronger binding
Quantity: mean fluorescence intensity
Strand: GGTTGGTGTGGTTGG
2'F-ANA at 2 5 6 10 12 13: 49 a.u.
2'F-ANA at 3 5 6 7 8 9: 142 a.u.
2'F-ANA at 2 3 5 6 7 8 10 11 13 14 15: 51.8 a.u.
2'F-ANA at 1 2 5 6 7 9 10 12 13: 57 a.u.
2'F-ANA at 1 3 5 9 10 11 12 15: 59.1 a.u.
2'F-ANA at 2 5 9 12 14: 50.2 a.u.
2'F-ANA at 1 2 4 6 7 8 11 12 13 15: 158 a.u.
2'F-ANA at 1 3 4 5 6 8 9 11 13 14: 46.5 a.u.

Set 4
Target: UDP-N-acetylglucosamine--peptide N-acetylglucosaminyltransferase 110 kDa subunit (OGT, Homo sapiens, UniProt O15294)
Observed: binding
Method: phage display NGS
Molecule type: peptide
Tested at: concentration not given
Baseline: input library
Quantity: enrichment fold change
Residues (O15294 1-1046): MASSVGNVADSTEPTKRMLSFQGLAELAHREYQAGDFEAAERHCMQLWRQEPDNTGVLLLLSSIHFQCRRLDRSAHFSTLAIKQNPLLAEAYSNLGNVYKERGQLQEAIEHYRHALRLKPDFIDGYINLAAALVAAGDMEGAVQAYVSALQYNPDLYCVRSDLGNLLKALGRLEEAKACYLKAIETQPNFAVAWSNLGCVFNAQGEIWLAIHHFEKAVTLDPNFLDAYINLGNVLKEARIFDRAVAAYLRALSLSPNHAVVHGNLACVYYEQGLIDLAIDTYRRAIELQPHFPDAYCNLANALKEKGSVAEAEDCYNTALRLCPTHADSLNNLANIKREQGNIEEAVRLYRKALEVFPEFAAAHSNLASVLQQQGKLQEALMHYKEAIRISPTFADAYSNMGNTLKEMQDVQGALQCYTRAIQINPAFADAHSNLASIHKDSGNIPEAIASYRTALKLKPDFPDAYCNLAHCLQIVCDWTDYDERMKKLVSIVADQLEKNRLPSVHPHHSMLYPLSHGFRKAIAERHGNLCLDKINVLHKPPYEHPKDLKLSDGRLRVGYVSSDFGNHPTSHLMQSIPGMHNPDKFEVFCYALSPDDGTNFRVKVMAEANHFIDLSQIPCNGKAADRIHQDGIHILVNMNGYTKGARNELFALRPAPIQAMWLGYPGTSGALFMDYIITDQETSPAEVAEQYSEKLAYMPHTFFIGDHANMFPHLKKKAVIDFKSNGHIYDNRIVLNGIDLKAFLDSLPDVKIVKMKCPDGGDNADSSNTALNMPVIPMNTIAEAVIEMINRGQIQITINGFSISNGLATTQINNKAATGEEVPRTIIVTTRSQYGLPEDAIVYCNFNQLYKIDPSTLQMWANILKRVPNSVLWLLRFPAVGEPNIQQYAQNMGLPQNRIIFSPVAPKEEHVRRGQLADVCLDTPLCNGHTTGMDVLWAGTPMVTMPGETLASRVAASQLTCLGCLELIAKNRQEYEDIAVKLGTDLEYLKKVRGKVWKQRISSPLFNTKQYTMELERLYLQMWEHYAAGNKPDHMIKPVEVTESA
HPKFLPSMHHYPQGD: 4.4
QMDGMFPPKYQINSF: 3.86
HRMDHHDHQPHYDAS: 6.21
FMPMYEIKYAKREDN: 20.1
TAPFYPPAYFI: 1.38
QHITHYHFTHQFDTH: 3.55
HVRGHHHIFTQGAD: 9.48
QMNYIHWWIQKDHK: 2.28

Other studies, line by line
Method: cross-linking MS
LCT (Homo sapiens, UniProt P09848)  cross-linked residues (PAXIP1 (Homo sapiens, UniProt Q6ZW49); cell fractions; with: DMTMM): D1711 to M1
ATP5F1C (Homo sapiens, UniProt P36542)  interaction screen (ATP5MK (Homo sapiens, UniProt Q96IX5); hits only): cross-linked
ADNP (Homo sapiens, UniProt Q9H2P0)  cross-linked residues (GTF3C4 (Homo sapiens, UniProt Q9UKN8); cell fractions; with: DMTMM): K699 to E677
SRSF1 (Homo sapiens, UniProt Q07955)  cross-linked residues (RNPS1 (Homo sapiens, UniProt Q15287); cell fractions; with: DSSO): T178 to K188

A few entries again (set 3):
2'F-ANA at 3 5 6 7 8 9: 142 a.u.
2'F-ANA at 1 2 4 6 7 8 11 12 13 15: 158 a.u.
2'F-ANA at 2 5 9 12 14: 50.2 a.u.
2'F-ANA at 1 2 5 6 7 9 10 12 13: 57 a.u.
2'F-ANA at 1 3 5 9 10 11 12 15: 59.1 a.u.
2'F-ANA at 2 5 6 10 12 13: 49 a.u.
